# Assay results collected from several papers.
# Lines come from different studies, so protocols differ. Several values in a cell are separate wells, animals, samples, runs or records. Numbers after ± are the reported error.
SMILES,assay,system,setting,how to read,endpoint,value
O=C(O)CC[C@H](NC(=O)N[C@@H](CCCCNC(=O)CCCCCCC(=O)NCCCC[C@@H](NC(=O)[C@@H](Cc1ccccc1)NC(=O)[C@@H](Cc1ccc(O)c(I)c1)NC(=O)CCC(C(=O)O)N1CCN(CC(=O)O)CCN(CC(=O)O)CCN(CC(=O)O)CC1)C(=O)O)C(=O)O)C(=O)O (stereo partly drawn) [gallium-68 labelled],,"CB-17 SCID mice, tumour xenograft","dose not given, 1 h post-injection",,tumour uptake,4.37 ± 0.64 %ID/g
CC(C)C[C@H](NC(=O)C[C@H](O)[C@H](CC(C)C)NC(=O)[C@H](Cc1c[nH]cn1)NC(=O)CNC(=O)[C@@H](NC(=O)[C@H](C)NC(=O)[C@H](Cc1c[nH]c2ccccc12)NC(=O)[C@H](CCC(N)=O)NC(=O)[C@@H](Cc1ccccc1)NC(=O)CCOCCOCCOCCNC(=O)CN1CCN(CC(=O)O)CCN(CC(=O)O)CC1)C(C)C)C(N)=O [gallium-68 labelled],microPET imaging,"nude mouse PC-3 xenograft, PC-3 tumour","intravenous, 3.7 MBq, 30 min",,mean tumour uptake,2.96 ± 0.45 %ID/g
N=C(N)NCCC[C@@H]1NC(=O)[C@H](CCCCNC(=O)CNC(=O)CNC(=O)CNC(=O)CC[C@H](NC(=O)CNC(=O)CNC(=O)CNC(=O)CN2CCN(CC(=O)O)CCN(CC(=O)O)CCN(CC(=O)O)CC2)C(=O)NCC(=O)NCC(=O)NCC(=O)NCCCC[C@@H]2NC(=O)[C@@H](Cc3ccccc3)NC(=O)[C@H](CC(=O)O)NC(=O)CNC(=O)[C@H](CCCNC(=N)N)NC2=O)NC(=O)[C@@H](Cc2ccccc2)NC(=O)[C@H](CC(=O)O)NC(=O)CNC1=O [indium-111 labelled],,"female athymic nu/nu mice, U87MG tumour","intravenous, 111 kBq, 24 h",,tissue uptake,4.83 ± 1.19 %ID/g
CSCC[C@H](NC(=O)[C@H](CC(C)C)NC(=O)[C@H](Cc1c[nH]cn1)NC(=O)CNC(=O)[C@@H](NC(=O)[C@H](C)NC(=O)[C@H](Cc1c[nH]c2ccccc12)NC(=O)[C@H](CCC(N)=O)NC(=O)CCOCCOCCOCCOCCNC(=O)CN1CCN(CC(=O)O)CCN(CC(=O)O)CCN(CC(=O)O)CC1)C(C)C)C(N)=O [indium-111 labelled],radio-HPLC,"Swiss nu/nu mice, blood","intravenous, 1 nmol, 15 min",,intact peptide,1.4% and 2.3%
CC(C)[C@H](NC(=O)[C@@H](NC(=O)COCCOCCNC(=O)COCCOCCNC(=O)CN1CCN(CC(=O)O)CCN(CC(=O)O)CCN(CC(=O)O)CC1)[C@@H](C)O)C(=O)N[C@@H](CCCNC(=N)N)C(=O)N[C@H](C(=O)N[C@@H](CO)C(=O)N[C@@H](C)C(=O)N[C@@H](CC(=O)O)C(=O)O)[C@@H](C)O [copper-64 labelled],PET,"male nude mice, PC-3 xenograft","iv, 22 h",,tumour tracer uptake,7710 ± 1990 Bq/mL
N=C(N)NCCC[C@@H]1NC(=O)[C@H](CCCCNC(=O)CNC(=O)CNC(=O)CNC(=O)CC[C@H](NC(=O)CNC(=O)CNC(=O)CNC(=O)CC[C@H](NC(=O)CN2CCN(CC(=O)O)CCN(CC(=O)O)CCN(CC(=O)O)CC2)C(=O)NCC(=O)NCC(=O)NCC(=O)N[C@@H](CCC(=O)NCC(=O)NCC(=O)NCC(=O)NCCCC[C@@H]2NC(=O)[C@@H](Cc3ccccc3)NC(=O)[C@H](CC(=O)O)NC(=O)CNC(=O)[C@H](CCCNC(=N)N)NC2=O)C(=O)NCC(=O)NCC(=O)NCC(=O)NCCCC[C@@H]2NC(=O)[C@@H](Cc3ccccc3)NC(=O)[C@H](CC(=O)O)NC(=O)CNC(=O)[C@H](CCCNC(=N)N)NC2=O)C(=O)NCC(=O)NCC(=O)NCC(=O)NCCCC[C@@H]2NC(=O)[C@@H](Cc3ccccc3)NC(=O)[C@H](CC(=O)O)NC(=O)CNC(=O)[C@H](CCCNC(=N)N)NC2=O)NC(=O)[C@@H](Cc2ccccc2)NC(=O)[C@H](CC(=O)O)NC(=O)CNC1=O [indium-111 labelled],,"female athymic nu/nu mice, bone","intravenous, 24 h",,tissue uptake,1.41 ± 0.29 %ID/g
N=C(N)NCCC[C@@H]1NC(=O)[C@H](CCCCNC(=S)Nc2ccc(CC3CN(CC(=O)O)CCN(CC(=O)O)CCN(CC(=O)O)CCN3CC(=O)O)cc2)NC(=O)[C@@H](Cc2ccc(O)cc2)NC(=O)[C@H](CC(=O)O)NC(=O)CNC1=O (stereo partly drawn) [actinium-225 labelled],,U-87 MG tumour-bearing mice,4 h,,tumour to blood ratio,95
N=C(N)NCCC[C@@H]1NC(=O)[C@H](CCCCNC(=O)CC[C@H](NC(=O)CC[C@H](NC(=O)CN2CCN(CC(=O)O)CCN(CC(=O)O)CCN(CC(=O)O)CC2)C(=O)N[C@@H](CCC(=O)NCCCC[C@@H]2NC(=O)[C@@H](Cc3ccccc3)NC(=O)[C@H](CC(=O)O)NC(=O)CNC(=O)[C@H](CCCNC(=N)N)NC2=O)C(=O)NCCCC[C@@H]2NC(=O)[C@@H](Cc3ccccc3)NC(=O)[C@H](CC(=O)O)NC(=O)CNC(=O)[C@H](CCCNC(=N)N)NC2=O)C(=O)NCCCC[C@@H]2NC(=O)[C@@H](Cc3ccccc3)NC(=O)[C@H](CC(=O)O)NC(=O)CNC(=O)[C@H](CCCNC(=N)N)NC2=O)NC(=O)[C@@H](Cc2ccccc2)NC(=O)[C@H](CC(=O)O)NC(=O)CNC1=O [indium-111 labelled],,"female athymic nu/nu mice, U87MG tumour","intravenous, 111 kBq, 24 h",,tissue uptake,5.84 ± 1.09 %ID/g
N=C(N)NCCC[C@@H]1NC(=O)[C@H](CCCCNC(=O)CN2CCN(CC(=O)O)CCN(CC(=O)O)CCN(CC(=O)O)CC2)NC(=O)[C@@H](Cc2ccccc2)NC(=O)[C@H](CC(=O)O)NC(=O)CNC1=O,,"female athymic nude Nu/Nu mice, U-87 MG xenograft","intravenous, 10 µCi, 4 h",reference: tumour over muscle,tumour to muscle ratio,6.1
